Published values collected from several papers.
Compare with care: the assays were run in different laboratories. ± marks the error that the study gave.

N=C(N)NCCC[C@@H]1NC(=O)[C@H](CCCCNC(=O)CNC(=O)CNC(=O)CNC(=O)CC[C@H](NC(=O)CNC(=O)CNC(=O)CNC(=O)CN2CCN(CC(=O)O)CCN(CC(=O)O)CCN(CC(=O)O)CC2)C(=O)NCC(=O)NCC(=O)NCC(=O)NCCCC[C@@H]2NC(=O)[C@@H](Cc3ccccc3)NC(=O)[C@H](CC(=O)O)NC(=O)CNC(=O)[C@H](CCCNC(=N)N)NC2=O)NC(=O)[C@@H](Cc2ccccc2)NC(=O)[C@H](CC(=O)O)NC(=O)CNC1=O [indium-111 labelled]
tissue uptake (female athymic nu/nu mice, brain; intravenous, 1 h): 0.09 %ID/g

CCCC[C@H](NC(=O)CCCCCCCNC(=O)CN1CCN(CC(=O)O)CCN(CC(=O)O)CC1)C(=O)N[C@H]1CC(=O)NCCCC[C@@H](C(N)=O)NC(=O)[C@H](Cc2c[nH]c3ccccc23)NC(=O)[C@H](CCCNC(=N)N)NC(=O)[C@@H](Cc2ccccc2)NC(=O)[C@H](Cc2c[nH]cn2)NC1=O [copper-64 labelled]
tissue uptake (C57 mice, skin; intravenous, 0.37 MBq, 4 h): 0.11 ± 0.06 %ID/g

CCCC[C@H](NC(=O)CNC(=O)CNC(=O)CN1CCN(CC(=O)O)CCN(CC(=O)O)CC1)C(=O)N[C@H]1CC(=O)NCCCC[C@@H](C(N)=O)NC(=O)[C@H](Cc2c[nH]c3ccccc23)NC(=O)[C@H](CCCNC(=N)N)NC(=O)[C@@H](Cc2ccccc2)NC(=O)[C@H](Cc2c[nH]cn2)NC1=O [technetium-99m labelled]
tissue uptake (C57 mouse, muscle; iv, 0.037 MBq, 24 h): 0.03 ± 0.04 %ID/g

CCCC[C@H](NC(=O)CNC(=O)CNC(=O)CN1CCN(CC(=O)O)CCN(CC(=O)O)CCN(CC(=O)O)CC1)C(=O)N[C@H]1CC(=O)NCCCC[C@@H](C(N)=O)NC(=O)[C@H](Cc2c[nH]c3ccccc23)NC(=O)[C@H](CCCNC(=N)N)NC(=O)[C@@H](Cc2ccccc2)NC(=O)[C@H](Cc2c[nH]cn2)NC1=O [lutetium-177 labelled]
tissue uptake (C57 mouse, female, stomach; intravenous, 0.037 MBq, 0.5 h): 2.29 ± 0.45 %ID/g

CCCC[C@H](NC(=O)COCCOCCNC(=O)CN1CCN(CC(=O)O)CCN(CC(=O)O)CC1)C(=O)N[C@H]1CC(=O)NCCCC[C@@H](C(N)=O)NC(=O)[C@H](Cc2c[nH]c3ccccc23)NC(=O)[C@H](CCCNC(=N)N)NC(=O)[C@@H](Cc2ccccc2)NC(=O)[C@H](Cc2c[nH]cn2)NC1=O [copper-64 labelled]
tissue uptake (C57 mice, tumor; intravenous, 0.37 MBq, 2 h): 19.6 ± 1.48 %ID/g

CC(C)C[C@H](NC(=O)[C@H](Cc1ccc(O)cc1)NC(=O)[C@@H](CCCNC(=N)N)NC(=O)[C@@H](CO)NC(=O)[C@H](Cc1ccccc1)NC(=O)[C@H](CC1CCCCC1)NC(=O)[C@H](CC(=O)O)NC(=O)CN1CCCN2CCN(CCCN(CC(=O)O)CC2)CC1)C(=O)N[C@@H](Cc1c[nH]c2ccccc12)C(=O)N[C@@H](CO)C(=O)O [copper-64 labelled]
tissue uptake (female NMRI nude mice, liver; 1 h p.i.): 11.2 ± 1.2 %ID/g

N=C(N)NCCC[C@@H]1NC(=O)[C@H](CCCCNC(=O)CC[C@H](NC(=O)CC[C@H](NC(=O)CN2CCN(CC(=O)O)CCN(CC(=O)O)CCN(CC(=O)O)CC2)C(=O)N[C@@H](CCC(=O)NCCCC[C@@H]2NC(=O)[C@@H](Cc3ccccc3)NC(=O)[C@H](CC(=O)O)NC(=O)CNC(=O)[C@H](CCCNC(=N)N)NC2=O)C(=O)NCCCC[C@@H]2NC(=O)[C@@H](Cc3ccccc3)NC(=O)[C@H](CC(=O)O)NC(=O)CNC(=O)[C@H](CCCNC(=N)N)NC2=O)C(=O)NCCCC[C@@H]2NC(=O)[C@@H](Cc3ccccc3)NC(=O)[C@H](CC(=O)O)NC(=O)CNC(=O)[C@H](CCCNC(=N)N)NC2=O)NC(=O)[C@@H](Cc2ccccc2)NC(=O)[C@H](CC(=O)O)NC(=O)CNC1=O [indium-111 labelled]
tissue uptake (female athymic nu/nu mice, heart; intravenous, 4 h): 0.9 ± 0.18 %ID/g

CC(C)C[C@H](NC(=O)[C@@H](CCCCNC(=O)CCCCCNC(=O)CN1CCN(CC(=O)O)CCN(CC(=O)O)CCN(CC(=O)O)CC1)NC(=O)[C@H](Cc1ccc(O)cc1)NC(=O)[C@H](CO)NC(=O)[C@H](Cc1c[nH]c2ccccc12)NC(=O)[C@H](Cc1cnc[nH]1)NC(=O)[C@@H]1CCC(=O)N1)C(=O)N[C@@H](CCCNC(=N)N)C(=O)N1CCC[C@H]1C(=O)NCC(N)=O [indium-111 labelled]
tissue uptake (female athymic nude mouse, skin; intravenous, 0.037 MBq, 24 h): 0.22 ± 0.05 %ID/g

For quick reference, copied from above:
CC(C)C[C@H](NC(=O)[C@H](Cc1ccc(O)cc1)NC(=O)[C@@H](CCCNC(=N)N)NC(=O)[C@@H](CO)NC(=O)[C@H](Cc1ccccc1)NC(=O)[C@H](CC1CCCCC1)NC(=O)[C@H](CC(=O)O)NC(=O)CN1CCCN2CCN(CCCN(CC(=O)O)CC2)CC1)C(=O)N[C@@H](Cc1c[nH]c2ccccc12)C(=O)N[C@@H](CO)C(=O)O [copper-64 labelled]
tissue uptake (female NMRI nude mice, liver; 1 h p.i.): 11.2 ± 1.2 %ID/g
